# Experimental data from different studies.
# Lines come from different studies, so protocols differ. Several values in a cell are separate wells, animals, samples, runs or records.
SMILES,tested on,test,system,setting,scale,endpoint,result
CN1CC[C@]23c4c5ccc(O)c4O[C@H]2[C@@H](OS(=O)(=O)O)C=C[C@H]3[C@H]1C5,,hot water tail withdrawal test,normal Sprague-Dawley rats,dose not given,,time to return to baseline latency,2 to 3 h
O=[N+]([O-])c1cc2c(ccc3cc(Br)ccc32)o1,Mycobacterium bovis BCG,,1173 P2,,,MIC90,0.5 µg/mL
O=C(Cc1cccc(Cl)c1)N[C@H]1CCOC1=O,ExpR1 (Pectobacterium carotovorum),"cellulase activity, antagonist","Pectobacterium carotovorum, single-ExpR1 strain","5 µM, 4 h, together with: OHHL 5 µM",,inhibition,63%
CN1CCN(C2(CNC3CCN(c4cccc(-c5cc6cc(F)ccc6[nH]5)c4)CC3)CCC2)CC1,786-0,,,,,TGI,3.11 µM
O=C(Cc1ccccc1)NC1CCOC1=O (stereo not shown),ExpR1 (Pectobacterium carotovorum),"cellulase activity, agonist","Pectobacterium carotovorum, single-ExpR1 strain","200 µM, 4 h",reference: OHHL,activation,6%
CC[C@@H](NC(=O)CNC(=O)[C@@H](Cc1ccccc1)NC(=O)CNC(=O)[C@H](N)CCC(N)=O)C(=O)N[C@H](CC(=O)O)C(=O)N[C@H](CCC(=O)O)C(=O)N[C@H](CCSC)C(=O)N[C@H](CC(C)C)C(=O)N[C@H](CCC(N)=O)C(=O)NCC(=O)N[C@H](Cc1ccccc1)C(=O)N[C@H](C)C(=O)N[C@@H](C(=O)N[C@H](C)C(=O)N[C@H](CC)C(=O)N[C@H](CCCCN)C(=O)N[C@H](CCSC)C(=O)NCC(=O)N[C@H](C)C(=O)N[C@H](Cc1ccc(O)cc1)C(=O)N[C@H](CCCCN)C(=O)N[C@H](C)C(=O)N[C@H](CC(=O)O)C(=O)O)C(C)C,hemagglutinin influenza A/California/07/2009 H1N1,,,,,IC50,28 µM
O=C(Cc1ccc2ccccc2c1)N[C@H]1CCOC1=O,ExpR1 (Pectobacterium carotovorum),"cellulase activity, agonist","Pectobacterium carotovorum, single-ExpR1 strain","200 µM, 4 h",reference: OHHL,activation,8%
OC(Cn1cncn1)(Cn1cncn1)c1ccc(F)cc1F,Saccharomyces cerevisiae,cell growth,"Pdr5 deleted, Cdr1 overexpressed",2^6.492 µg/mL,,OD600,0.082 and 0.113 and 0.131
"COCCC1=C(C(=O)OC)C(c2ccc(Cl)cc2C)C2=C(CC(c3ccc(OC)c(OC)c3)OC2=O)N1 (single isomer, unassigned)",J774.A1,cytotoxicity,,,,EC50,> 20 µM
O=C1NC(=O)C(C2C3=C(CCCC3=O)Oc3ccc([N+](=O)[O-])cc32)C(=O)N1 (stereo not shown),3T3-L1 adipocytes,"qPCR, measured: GLUT4",,"IC20, 14 days",reference: untreated mature adipocytes,mRNA level,decreased
O=C1c2c(O)c(=O)ccn2N([C@@H]2c3ccccc3SCc3c2ccc(F)c3F)[C@@H]2COCCN12,influenza A virus,,"A/WSN/33 (H1N1), BALB/c mouse, lung","subcutaneous, 0.0625 mg/kg every 6 h, 24 h",,lung virus titre,3.91 log10 TCID50/mL
CC[C@@H](NC(=O)CNC(=O)[C@@H](CC(C)C)NC(=O)CNC(=O)[C@H](N)CCC(N)=O)C(=O)N[C@H](CC(=O)O)C(=O)N[C@H](CCC(=O)O)C(=O)N[C@H](CCSC)C(=O)N[C@H](CC(C)C)C(=O)N[C@H](CCC(N)=O)C(=O)NCC(=O)N[C@H](Cc1ccccc1)C(=O)N[C@H](C)C(=O)N[C@@H](C(=O)N[C@H](C)C(=O)N[C@@H](C(=O)N[C@H](CCCCN)C(=O)N[C@H](CCSC)C(=O)NCC(=O)N[C@H](C)C(=O)N[C@H](Cc1ccc(O)cc1)C(=O)N[C@H](CCCCN)C(=O)N[C@H](C)C(=O)N[C@H](CC(=O)O)C(=O)O)C(C)C)C(C)C,hemagglutinin influenza A/California/07/2009 H1N1,,,,,IC50,58 µM
Cc1c([N+](=O)[O-])oc2ccc3ccccc3c12,Mycobacterium bovis BCG,,1173 P2,,,MIC90,2 µg/mL
COc1ccc(-n2nc(C(C)=O)s/c2=N\N=C(/C)c2ccc(NC(C)=O)cc2)cc1,MCF7,"RT-PCR, measured: BAX mRNA",,0.04 µM,reference: untreated control,mRNA level,6.77 fold change
C[C@H]1O[C@@H](O[C@H]2CC[C@@]3(C)[C@@H](CC[C@]4(C)[C@@H]3C=C[C@]35OC[C@@]6(CCC(C)(C)C[C@H]63)[C@@H](O)C[C@]54C)[C@]2(C)CO)[C@H](O)[C@@H](O[C@@H]2O[C@H](CO)[C@@H](O)[C@H](O)[C@H]2O)[C@H]1O,,,"mouse, pair-fed, AAV8-TBG-Null","dose not given, high dose",,liver to body weight ratio,3.39% and 3.67% and 2.95% and 3.78% and 2.75% and 3.25%
COc1c(CCC[P+](c2ccccc2)(c2ccccc2)c2ccccc2)cc2c(c1OC)OCO2.[I-],MCF7,SRB,,,,TGI,-4.97 log M
CCCCC1(CCCC)CN(c2ccccc2)c2cc(SC)c(OCC(=O)N[C@@H](C(=O)NCC(=O)O)c3ccccc3)cc2S(=O)(=O)C1,,measured: LDL cholesterol,"human, serum","15 mg once daily, day 1",,serum LDL-C,97.6 mg/dL
c1ccc(C(NCCNC(c2ccccc2)c2ccccc2)c2ccccc2)cc1,"NMDA receptor, rat, Phencyclidine site",binding,,"10 µM, Eurofins selectivity panel",,inhibition,22%
CC(C)N1CCC(NC2CCN(c3cccc(-c4cc5cc(F)ccc5[nH]4)c3)CC2)CC1,UACC-62,,,,,CC50,6.74 µM
C=C(C)CN1CC[C@]23c4c5ccc(O)c4O[C@H]2c2[nH]c4ccccc4c2C[C@@]3(O)C1C5,primary rat hippocampal/cortical neuron-glia cultures,,,"1 µM, together with: 1 µM α-synuclein oligomers",,reversal of trafficking deficit,78.6%
COc1cc(CCC[P+](c2ccccc2)(c2ccccc2)c2ccccc2)c(OC)c2c1OCO2.[I-],SNB-19,SRB,,,,GI50,-5.93 log M
CC[C@H](C)[C@@H]1NC(=O)[C@@H]2CCCN2C(=O)[C@H](CC(C)C)NC(=O)[C@H](CC(C)C)NC(=O)CNC(=O)[C@@H](NC(=O)[C@@H](NC(=O)[C@H](CC(=O)O)NC(=O)CNC(=O)[C@@H](NC(=O)[C@H](C)NC(=O)CNC(=O)[C@H](CCCCN)NC(=O)[C@H](CC(C)C)NC(=O)[C@H](CC(C)C)NC(=O)[C@H](CCCCN)NC(=O)CNC(=O)[C@@H](NC(=O)[C@@H](N)CC(C)C)C(C)C)C(C)C)C(C)C)CSSC[C@@H](C(=O)O)NC1=O,,"RNA-seq, measured: Siglece mRNA","mouse traumatic brain injury, frontal cortex and hippocampus",dose not given,reference: TBI plus compound vs TBI,log2 fold change,-2.4

# For quick reference, copied from above:
SMILES,tested on,test,system,setting,scale,endpoint,result
"COCCC1=C(C(=O)OC)C(c2ccc(Cl)cc2C)C2=C(CC(c3ccc(OC)c(OC)c3)OC2=O)N1 (single isomer, unassigned)",J774.A1,cytotoxicity,,,,EC50,> 20 µM
O=C1NC(=O)C(C2C3=C(CCCC3=O)Oc3ccc([N+](=O)[O-])cc32)C(=O)N1 (stereo not shown),3T3-L1 adipocytes,"qPCR, measured: GLUT4",,"IC20, 14 days",reference: untreated mature adipocytes,mRNA level,decreased
O=C1c2c(O)c(=O)ccn2N([C@@H]2c3ccccc3SCc3c2ccc(F)c3F)[C@@H]2COCCN12,influenza A virus,,"A/WSN/33 (H1N1), BALB/c mouse, lung","subcutaneous, 0.0625 mg/kg every 6 h, 24 h",,lung virus titre,3.91 log10 TCID50/mL
